Experimental data of several laboratories.
Protocols differ between the studies behind these lines. Numbers after ± are the reported error.

SMILES	target or system	test	system	conditions	measurement	value
CN[C@](C)(C[18F])C(=O)O	MDA-MB-468 tumour model		host not given, blood	2 h, tumour-bearing	tracer uptake	0.5 %ID/g
COc1cc(C(=O)NCCOCCOCCOCCNC(=O)c2ccc([18F])nc2)ccc1NC(=O)C1NC(CC(C)(C)C)C(C#N)(c2ccc(Cl)cc2F)C1c1cccc(Cl)c1F (stereo not shown)	HepG2 tumour model		host not given, stomach	30 min, tumour-bearing	tracer uptake	2.15 %ID/g
CCC(=O)N(C)c1ccc(Cl)c(Cl)c1	Salmonella typhimurium	Ames test	TA100	5.00 mg/plate, with rat liver S9	revertant colonies	0 revertants/plate
O=C(O)CCC(NP(=O)(O)OCCC[C@@H](NC(=O)CCC(NC(=O)c1ccc([18F])cc1)C(=O)O)C(=O)O)C(=O)O (stereo partly shown)	CWR22Rv1 tumour model		host not given, heart	intravenous, 1 h, tumour-bearing	tracer uptake	0.75 %ID/g
CC(C)[C@H](NC(=O)CNC(=O)[C@H](CCC(N)=O)NC(=O)[C@H](C)N)C(=O)O			human	10 mg/kg single dose	subjects with mild adverse events	33.3%
COc1ccc(CNc2nc(N3CCC[C@H]3CO)ncc2C(=O)NNC(=O)c2cnc(N3CCC[C@H]3CO)nc2NCc2ccc(OC)c(Cl)c2)cc1Cl	Salmonella typhimurium		TA1535	500 µg/plate, 48 h	revertant count	38 ± 4
CC[C@H](C)C(=O)N1CCC(NC(=O)Nc2ccc(OC(F)(F)F)c(F)c2)CC1			healthy volunteers	oral, 0.5 to 24 mg, single dose	tolerability	not toxic
O=C(O)CCC(NP(=O)(O)OCCC[C@@H](NC(=O)CCC(NC(=O)CCCCCNC(=O)CCCCCNC(=O)c1ccc([18F])cc1)C(=O)O)C(=O)O)C(=O)O (stereo partly shown)	CWR22Rv1 tumour model		host not given, tumour	intravenous, 2 h, tumour-bearing	tracer uptake	1.86 %ID/g
COc1ccc(CNc2nc(N3CCC[C@H]3CO)ncc2C(=O)NN)cc1Cl	Salmonella typhimurium		TA100	250 µg/plate, 48 h	revertant count	174 ± 13
C[C@@](O)(C(F)F)[C@H](NC(=O)c1ccc(C#CC#CC2CC2)cc1)C(=O)NO			dog, plasma	oral, 50 mg/kg	half-life	1.8 h

Some of these lines once more:
SMILES	target or system	test	system	conditions	measurement	value
CN[C@](C)(C[18F])C(=O)O	MDA-MB-468 tumour model		host not given, blood	2 h, tumour-bearing	tracer uptake	0.5 %ID/g
